Published values of several laboratories.
Protocols differ between the studies behind these lines.
Target: Serine/threonine-protein kinase Nek9 (NEK9, Homo sapiens, UniProt Q8TD19)

Nc1ncc2c(n1)-c1c([nH]c3ccc(C4=CCOCC4)cc13)CCC2 — remaining binding (binding, competition with immobilised ligand; 1 µM): 100%
C=CC(=O)Nc1cccc(-c2cnc3[nH]cc(C(=O)NC(C)(C)C)c3n2)c1 — inhibition (enzyme activity, inhibitor; 0.1 µM): 28%
CC(C)=CC1OC(C)(C)C2C=C3C(=O)C(Cl)=CC(O)C3C3C(O)C4OC4C(=O)C132 (centres unmarked) — remaining binding (cell-free assay, competition with immobilised ligand; 10 µM): 97%
CN1CCN(Cc2ccc(-c3ccc(CO[C@H]4CCC[C@@H]4NC(=O)c4cc(-c5cnn(C)c5)cnc4N)cc3)cc2)CC1 — inhibition (enzyme activity, inhibitor; 0.1 µM): 3%
COc1cc(Nc2nccc(-c3cnn4nc(OC)ccc34)n2)cc(C(F)(F)F)c1 — remaining binding (binding, competition with immobilised ligand; 1 µM): 64%
Cc1cnc2nc1Nc1cccc(c1)COC/C=C/COCc1cc(ccc1OCCN1CCOCC1)N2 — remaining binding (binding; 0.1 µM): 94%
C=CC(=O)N1Cc2nc(-c3cc(-c4cc(Cl)cnc4Cl)c(F)cc3F)n(-c3ccncn3)c2C1 — inhibition (cell-free assay, inhibitor; 1 µM): 0%
CN1C[C@@H](c2c[nH]c3cc(Br)ccc23)NC[C@@H]1c1c[nH]c2cc(Br)ccc12 — remaining activity (enzyme activity, inhibitor; 10 µM): 102%
CNC(=O)C[C@H](Cc1ccc(C#N)cc1)NC(=O)c1cc(-c2ccc(CN[C@H](C)c3ccc(C)cc3)o2)ccc1Cl — activity vs control (enzyme activity, inhibitor; 1 µM): 117%
O=C(Cc1ccc(OCc2ccccc2)cc1)NC1(C(=O)O)CCN(C(=O)c2ccc(-c3cccc(Cl)c3)cc2)CC1 — activity vs control (enzyme activity, inhibitor; 10 µM): 68%
NC(=O)C[C@H]1CCc2sc3ncnc(O[C@H]4CC[C@H](N5CCOCC5)CC4)c3c21 — inhibition (enzyme activity, inhibitor; 10 µM): 1%
CCN1CCN(Cc2ccc(C(=O)Nc3ccc(C)c(NCc4cnc5[nH]ccc5c4OC)c3)cc2C(F)(F)F)CC1 — remaining binding (binding, competition with immobilised ligand; 1 µM): 100%
Cc1cccc(O[C@H]2CCC[C@@H](C(C)CNCc3ccncc3)C2)c1 (relative stereo) — inhibition (enzyme activity, inhibitor; 1 µM): 1%
Cc1ccc(-c2c(/C=C(\C#N)C(=O)NC(C)C)n(CCCO)c3ncnc(N)c23)cc1 — remaining binding (cell-free assay, competition with immobilised ligand; 1 µM): 100%
